Published values of several laboratories.
A part holds a random share of what one study measured. Changes are numbered by the printed parent chain.
UniProt P06493, sequence (whole entry, looked up): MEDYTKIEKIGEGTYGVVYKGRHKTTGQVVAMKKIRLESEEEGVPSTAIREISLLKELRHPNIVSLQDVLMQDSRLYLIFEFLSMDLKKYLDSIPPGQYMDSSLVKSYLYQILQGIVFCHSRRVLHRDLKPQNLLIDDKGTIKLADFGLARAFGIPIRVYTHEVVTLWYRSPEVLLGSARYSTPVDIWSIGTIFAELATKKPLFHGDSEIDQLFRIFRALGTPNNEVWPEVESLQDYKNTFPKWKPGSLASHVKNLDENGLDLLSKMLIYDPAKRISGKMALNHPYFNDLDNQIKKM
UniProt P11362, sequence (whole entry, looked up): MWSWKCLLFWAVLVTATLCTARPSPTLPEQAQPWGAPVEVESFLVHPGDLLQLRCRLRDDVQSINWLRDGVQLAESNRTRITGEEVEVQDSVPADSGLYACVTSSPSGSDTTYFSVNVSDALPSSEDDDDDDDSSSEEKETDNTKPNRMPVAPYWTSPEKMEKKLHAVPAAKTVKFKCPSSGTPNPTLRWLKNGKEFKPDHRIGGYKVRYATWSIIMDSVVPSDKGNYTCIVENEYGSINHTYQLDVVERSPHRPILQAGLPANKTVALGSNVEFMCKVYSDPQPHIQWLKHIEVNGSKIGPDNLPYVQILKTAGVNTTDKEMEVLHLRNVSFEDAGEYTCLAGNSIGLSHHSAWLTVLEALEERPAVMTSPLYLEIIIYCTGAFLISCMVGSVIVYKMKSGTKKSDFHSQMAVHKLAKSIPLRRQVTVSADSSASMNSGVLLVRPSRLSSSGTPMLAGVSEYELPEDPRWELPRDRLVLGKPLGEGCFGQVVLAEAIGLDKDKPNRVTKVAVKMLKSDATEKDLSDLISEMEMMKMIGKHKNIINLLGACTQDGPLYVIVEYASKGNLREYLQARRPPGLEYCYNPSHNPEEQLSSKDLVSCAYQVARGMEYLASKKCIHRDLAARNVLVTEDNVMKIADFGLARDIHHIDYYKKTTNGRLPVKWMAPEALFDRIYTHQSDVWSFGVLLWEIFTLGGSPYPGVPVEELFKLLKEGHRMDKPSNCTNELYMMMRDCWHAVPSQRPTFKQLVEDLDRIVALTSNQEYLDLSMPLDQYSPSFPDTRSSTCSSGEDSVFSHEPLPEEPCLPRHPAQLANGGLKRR
UniProt P22612, sequence (whole entry, looked up): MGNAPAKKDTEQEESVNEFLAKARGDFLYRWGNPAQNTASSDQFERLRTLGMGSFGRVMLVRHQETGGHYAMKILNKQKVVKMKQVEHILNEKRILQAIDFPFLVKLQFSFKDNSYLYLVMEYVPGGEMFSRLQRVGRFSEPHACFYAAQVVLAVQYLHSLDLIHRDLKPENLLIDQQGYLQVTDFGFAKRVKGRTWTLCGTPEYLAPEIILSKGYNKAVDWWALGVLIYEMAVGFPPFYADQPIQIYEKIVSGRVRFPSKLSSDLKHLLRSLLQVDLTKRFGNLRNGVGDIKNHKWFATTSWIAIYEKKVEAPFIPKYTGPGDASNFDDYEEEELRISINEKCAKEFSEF
UniProt O75460, sequence (whole entry, looked up): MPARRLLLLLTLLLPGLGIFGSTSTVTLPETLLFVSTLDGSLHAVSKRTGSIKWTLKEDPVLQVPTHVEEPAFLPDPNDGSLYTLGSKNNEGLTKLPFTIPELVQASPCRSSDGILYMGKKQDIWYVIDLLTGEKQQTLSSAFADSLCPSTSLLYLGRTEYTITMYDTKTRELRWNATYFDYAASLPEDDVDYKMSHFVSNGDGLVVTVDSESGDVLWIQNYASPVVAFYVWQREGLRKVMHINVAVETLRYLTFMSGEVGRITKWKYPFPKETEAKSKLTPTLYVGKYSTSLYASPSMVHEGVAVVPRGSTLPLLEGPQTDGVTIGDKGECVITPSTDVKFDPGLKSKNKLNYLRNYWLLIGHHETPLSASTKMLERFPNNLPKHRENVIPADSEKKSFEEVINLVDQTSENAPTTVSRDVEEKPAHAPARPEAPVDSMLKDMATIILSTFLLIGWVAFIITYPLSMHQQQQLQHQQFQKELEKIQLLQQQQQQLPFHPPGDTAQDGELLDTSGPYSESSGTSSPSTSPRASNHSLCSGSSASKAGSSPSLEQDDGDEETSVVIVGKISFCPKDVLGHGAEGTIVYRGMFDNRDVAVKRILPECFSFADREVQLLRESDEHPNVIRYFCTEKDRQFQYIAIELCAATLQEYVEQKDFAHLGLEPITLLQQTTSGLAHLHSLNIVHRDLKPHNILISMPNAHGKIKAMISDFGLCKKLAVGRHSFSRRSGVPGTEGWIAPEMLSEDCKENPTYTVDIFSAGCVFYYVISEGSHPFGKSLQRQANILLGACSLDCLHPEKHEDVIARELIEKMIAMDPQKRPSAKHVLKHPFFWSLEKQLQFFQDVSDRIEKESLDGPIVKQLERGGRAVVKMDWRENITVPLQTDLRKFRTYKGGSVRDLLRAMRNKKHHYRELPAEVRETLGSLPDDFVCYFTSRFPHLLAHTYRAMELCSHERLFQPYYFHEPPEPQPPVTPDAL
UniProt O75582, sequence (whole entry, looked up): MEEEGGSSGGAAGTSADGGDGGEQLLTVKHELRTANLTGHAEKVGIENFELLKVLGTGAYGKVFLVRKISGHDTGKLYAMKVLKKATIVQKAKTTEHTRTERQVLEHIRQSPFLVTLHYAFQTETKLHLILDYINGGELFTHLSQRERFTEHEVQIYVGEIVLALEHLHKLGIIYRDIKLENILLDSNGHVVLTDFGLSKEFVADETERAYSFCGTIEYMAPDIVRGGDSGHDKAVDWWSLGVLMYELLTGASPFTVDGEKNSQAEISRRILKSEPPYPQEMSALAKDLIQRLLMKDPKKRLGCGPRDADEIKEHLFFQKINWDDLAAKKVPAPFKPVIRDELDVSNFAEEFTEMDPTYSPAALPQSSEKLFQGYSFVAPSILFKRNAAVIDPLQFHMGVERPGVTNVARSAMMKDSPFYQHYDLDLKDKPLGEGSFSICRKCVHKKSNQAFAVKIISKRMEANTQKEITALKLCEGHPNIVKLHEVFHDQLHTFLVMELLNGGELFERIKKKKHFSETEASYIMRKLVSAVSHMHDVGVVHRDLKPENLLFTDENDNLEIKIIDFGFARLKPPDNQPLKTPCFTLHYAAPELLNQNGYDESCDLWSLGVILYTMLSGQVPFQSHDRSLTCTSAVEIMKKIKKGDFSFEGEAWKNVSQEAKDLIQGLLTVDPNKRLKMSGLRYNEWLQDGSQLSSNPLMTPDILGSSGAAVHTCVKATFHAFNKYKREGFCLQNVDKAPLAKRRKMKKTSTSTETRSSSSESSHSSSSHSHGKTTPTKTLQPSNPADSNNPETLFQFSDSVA
UniProt P29322, sequence (whole entry, looked up): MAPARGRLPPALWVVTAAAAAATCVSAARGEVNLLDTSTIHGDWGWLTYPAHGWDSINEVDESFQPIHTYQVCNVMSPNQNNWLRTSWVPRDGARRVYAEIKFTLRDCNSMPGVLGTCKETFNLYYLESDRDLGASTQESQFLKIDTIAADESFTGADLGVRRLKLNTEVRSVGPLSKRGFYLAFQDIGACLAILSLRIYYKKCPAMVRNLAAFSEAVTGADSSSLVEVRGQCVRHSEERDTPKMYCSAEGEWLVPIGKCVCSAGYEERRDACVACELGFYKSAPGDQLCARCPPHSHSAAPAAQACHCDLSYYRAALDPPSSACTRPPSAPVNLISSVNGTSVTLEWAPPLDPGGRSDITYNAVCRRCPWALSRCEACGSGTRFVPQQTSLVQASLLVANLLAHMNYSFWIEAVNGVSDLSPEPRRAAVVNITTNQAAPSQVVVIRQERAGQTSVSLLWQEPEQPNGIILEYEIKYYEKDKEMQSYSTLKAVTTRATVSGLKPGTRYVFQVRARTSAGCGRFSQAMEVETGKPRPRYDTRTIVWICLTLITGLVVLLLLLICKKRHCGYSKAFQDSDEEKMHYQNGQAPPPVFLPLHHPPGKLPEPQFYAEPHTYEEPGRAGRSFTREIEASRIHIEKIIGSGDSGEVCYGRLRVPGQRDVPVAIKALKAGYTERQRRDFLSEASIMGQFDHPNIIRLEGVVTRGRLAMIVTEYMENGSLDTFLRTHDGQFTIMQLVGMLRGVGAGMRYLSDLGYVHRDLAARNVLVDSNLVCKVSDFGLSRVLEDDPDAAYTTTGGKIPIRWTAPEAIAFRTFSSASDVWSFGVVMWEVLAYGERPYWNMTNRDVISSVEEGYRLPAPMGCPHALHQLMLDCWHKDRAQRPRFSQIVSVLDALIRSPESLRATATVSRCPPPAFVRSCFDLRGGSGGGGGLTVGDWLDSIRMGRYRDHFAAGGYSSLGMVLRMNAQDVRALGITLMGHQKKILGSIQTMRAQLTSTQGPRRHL

Sample 1
Target: BATF2, bZIP domain (human)
Technique: DHFR protein complementation
Matrix: yeast
Setting: single substitutions, most at no-binding floor
Baseline: wild-type JUN-FOS pair
Reading: higher = stronger binding
Measurement: binding fitness
Starting sequence: JUN, bZIP domain (human); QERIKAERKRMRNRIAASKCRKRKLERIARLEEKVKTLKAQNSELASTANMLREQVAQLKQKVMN; partner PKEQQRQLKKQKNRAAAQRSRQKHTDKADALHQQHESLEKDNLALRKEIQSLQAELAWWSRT
Substitution = L38T; value = -1.09 natural log
Substitution = E33W; value = -0.536 natural log
Substitution = L45H; value = -1.25 natural log
Substitution = L52M; value = -0.693 natural log
Substitution = N42F; value = -1.06 natural log
Substitution = A57V; value = -0.482 natural log
Substitution = M51N; value = -0.223 natural log
Substitution = T48E; value = -0.397 natural log

Sample 2
SMILES: CCC(=O)Nc1ccc2ncnc(Nc3cccc(Br)c3)c2c1
Effect on: enzyme activity
Mode: inhibitor
Concentration: 0.5 µM
Baseline: control
Measurement: remaining activity
target = Ribosomal protein S6 kinase alpha-5 (RPS6KA5, Homo sapiens, UniProt O75582); value = 90%
target = cAMP-dependent protein kinase catalytic subunit gamma (PRKACG, Homo sapiens, UniProt P22612); value = 95.5%
target = Cyclin-dependent kinase 1, with cyclin B (CDK1, Homo sapiens, UniProt P06493); value = 89.5%

Sample 3
Target: PABPC1L2, full length, GST fusion (mouse, UniProt A0ABA7IW68)
Technique: RNAcompete
Form: RNA
Matrix: in vitro
Concentration: 20 nM
Setting: 7-mer, probes averaged, single round
Baseline: mean of 7-mers
Reading: higher = stronger binding
Measurement: 7-mer Z-score
Strand = AGCUGUU; value = -0.423
Strand = UUUAUCU; value = -0.269
Strand = AAUGCUA; value = 0.037
Strand = UUUGUUG; value = -0.498
Strand = UGCUAGG; value = 0.113
Strand = GAAGCAA; value = 0.262
Strand = CAUCAUG; value = -0.264
Strand = CAAAGCG; value = 0.204

Sample 4
SMILES: O=C(N[C@H]1CCCCC/C=C\C2C[C@@]2(C(=O)O)NC(=O)[C@@H]2C[C@@H](Oc3ccncc3)CN2C1=O)OC1CCCC1 (stereo partly shown)
Effect on: cell-free assay
Technique: competition with immobilised ligand
Concentration: 1 µM
Measurement: remaining binding
target = Serine/threonine-protein kinase/endoribonuclease IRE1 (ERN1, Homo sapiens, UniProt O75460); value = 80%
target = Ephrin type-A receptor 8 (EPHA8, Homo sapiens, UniProt P29322); value = 100%
target = Fibroblast growth factor receptor 1 (FGFR1, Homo sapiens, UniProt P11362); value = 100%
